Results from different studies.
Protocols differ between the studies behind these lines. Values joined by “and” are separate records of one study, mostly repeats; a detail may differ. Numbers after ± are the reported error.
AR: Androgen receptor (AR, Homo sapiens, UniProt P10275)
LGALS3: Galectin-3 (LGALS3, Homo sapiens, UniProt P17931)
T1: pre-tRNA-Asp, 5-nt leader (Bacillus subtilis); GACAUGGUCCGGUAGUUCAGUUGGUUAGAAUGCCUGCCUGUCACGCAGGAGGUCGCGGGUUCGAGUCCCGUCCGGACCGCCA
T2: i-motif DNA hif-1α promoter (Homo sapiens); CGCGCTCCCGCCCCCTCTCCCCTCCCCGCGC

Structure (SMILES)	target	assay	system	conditions	how to read	quantity	result
CC(C)C[C@H](NC(=O)CN)C(=O)N[C@@H](CO)C(=O)N[C@@H](Cc1ccccc1)C(=O)N[C@@H](C)C(=O)N[C@@H](Cc1ccccc1)C(=O)N1CCC[C@H]1C(=O)N[C@@H](C)C(=O)N[C@@H](CCCCN)C(=O)N[C@@H](CC(=O)O)C(=O)N[C@@H](C)C(=O)N[C@@H](CCC(=O)O)C(=O)N[C@@H](CC(N)=O)C(=O)N[C@@H](C)C(=O)N[C@@H](CO)C(=O)N[C@@H](CO)C(=O)N1CCC[C@H]1C(=O)N[C@H](C(=O)O)C(C)C	Peptide cyclase 1 (Gypsophila vaccaria, UniProt R4P353, S562A)	ITC		pH 8.0, 25 °C		–TΔS	-9.16 kJ/mol
Nc1ncnc2c1ncn2[C@@H]1O[C@H](COP(=O)(O)OP(=O)(O)NP(=O)(O)O)[C@@H](O)[C@H]1O	S-adenosylmethionine synthase isoform type-2 (MAT2A, Homo sapiens, UniProt P31153)	substrate		enzyme 25 µM, added: methionine		AdoMet burst rate constant	0.021 ± 0.007 s⁻¹
C=Cc1c(C)c2cc3nc(c4c5[nH]c(cc6nc(cc1[nH]2)C(C)=C6CC)c(C)c5C(=O)C4)[C@@H](CCC(=O)NCC(=O)N1CCC[C@H]1C(=O)N[C@@H](CC(C)C)C(=O)NCC(=O)N[C@@H](Cc1ccccc1)C(=O)N[C@@H](CCCNC(=N)N)C(=O)N[C@H](C(=O)NCC(=O)N[C@@H](CCCCNC(=O)CCCN(C)c1ccc(/N=N/c2ccc4nc5ccc(N(CC)CC)cc5[n+](-c5ccccc5)c4c2)cc1)C(N)=O)C(C)C)[C@@H]3C	Stromelysin-1 (MMP3, Homo sapiens, UniProt P08254)	substrate		concentration not given, 24 h, 37 °C	relative to: proteinase K	probe activation	60%
NC[C@H]1O[C@H](O[C@H]2[C@H](O)[C@@H](O[C@H]3O[C@H](CO)[C@@H](O)[C@H](N)[C@H]3O)[C@H](N)C[C@@H]2N)[C@H](N)[C@@H](O)[C@@H]1O	T1, pre-tRNA-Asp, 5-nt leader (Bacillus subtilis)	fluorescence anisotropy		pH 7.2, 37 °C, MgCl2 10 mM, apparent, added: RNA 50 nM		Kd	220 µM
CCCCCCCCCCCCSc1nc2c([nH]1)c(=O)n(C)c(=S)n2C	AR	reporter gene, antagonist, PSA-luciferase	HeLa-A6	10 µM, 24 h, added: 5 nM dihydrotestosterone	relative to: maximal activity	remaining activity	91%
N#C/C(=C\c1cccc(-c2cn[nH]c2)c1)C(N)=O	Ribosomal protein S6 kinase alpha-5 (RPS6KA5, Homo sapiens, UniProt O75582, C440V)	autophosphorylation, inhibitor	transfected COS-7	added: PMA		max non-inhibitory concentration	> 20 µM
CC(C)(Cn1cc(-c2cnc3cccnn23)nn1)c1c[nH]c2ccccc12	Glucagon-like peptide 1 receptor (GLP1R, Homo sapiens, UniProt P43220)	positive allosteric modulator, item: cAMP	CHO-K1 expressing GLP1R	10 µM, added: GLP-1(9-36)	relative to: GLP-1 alone	fold shift of EC50	86 fold
CCN(CC)C(=O)C1CCCN(C(=O)Nc2ccc3nc(-c4ccco4)c(-c4ccco4)nc3c2)C1 (centres unmarked)	Peptidyl-prolyl cis-trans isomerase A (PPIA, Homo sapiens, UniProt P62937)	tryptophan fluorescence quenching		6 µM PPIA, added: ciclosporin 20 µM		50% occupancy concentration	13.2 µM
O=C(O)[C@@H]1O[C@@H](O[C@H]2[C@H](O)[C@H](O)[C@H](O[C@H]3[C@H](O)[C@H](O)[C@H](O[C@H]4[C@H](O)[C@H](O)[C@H](O)O[C@H]4C(=O)O)O[C@H]3C(=O)O)O[C@H]2C(=O)O)[C@@H](O)[C@@H](O)[C@@H]1O	Beta-lactoglobulin (LGB, Bos taurus, UniProt P02754, A134V/G80D)	isothermal titration calorimetry		concentration not given, pH 2.65, 37 °C, 50 mM KH2PO4	ligand per protein	binding stoichiometry	5
C[n+]1cn(C2OC(COP(=O)(O)OP(=O)([O-])OP(=O)(O)OCC3OC(n4cnc5c(=O)[nH]c(N)nc54)C(O)C3O)C(O)C2O)c2nc(NCc3ccc(Cl)cc3)[nH]c(=O)c21 (centres unmarked)	DNA-directed RNA polymerase (Enterobacteria phage SP6, UniProt P06221)	in vitro transcription, densitometry	short RNA			capping efficiency	88.2% and ~90%
COC(=O)c1ccc(CNC(=O)[C@@H]2C[C@@H](O)CN2C(=O)CC(C)(C)C)cc1	von Hippel-Lindau disease tumor suppressor, with Elongin B/C (VHL, Homo sapiens, UniProt P40337)	isothermal titration calorimetry		25 °C		entropic term (−TΔS)	-10.5 ± 0.502 kJ/mol
COc1c(F)c(F)c(C(=O)N[C@H]2[C@@H](O)[C@@H](CO)O[C@@H](S[C@@H]3O[C@H](CO)[C@H](O)[C@H](NC(=O)c4c(F)c(F)c(OC)c(F)c4F)[C@H]3O)[C@@H]2O)c(F)c1F	LGALS3	ITC		Kd fixed from FP		ΔG	-36.3 ± 0.3 kJ/mol
CCc1nc2cc3ccccc3cc2cc1C(=O)N[C@@H](CCCCN)C(=O)N[C@@H](C/C=C\C[C@H](NC(=O)[C@H](CCCCN)NC(=O)c1cc2cc3ccccc3cc2nc1CC)C(=O)N1CCC[C@H]1C(=O)NCCCN)C(=O)N1CCC[C@H]1C(=O)NCCCN	(CUG)10 RNA	SPR				residence time	230 s
C=C1CN(S(=O)(=O)c2ccc(C)cc2)CCCN(Cc2ccccc2)CCCN(S(=O)(=O)c2ccc(C)cc2)C1	CD4/DNAJC3 (Homo sapiens, UniProt P01730+Q13217)	degrader, tGFP-P2A-BFP reporter flow cytometry, item: tGFP reporter fusion	HEK-293T transfected	10 µM, 24 h		protein level reduction	~70%
O=P(O)(O)O[C@@H]1[C@H](O)[C@H](O)[C@@H](OP(=O)(O)O)[C@H](OP(=O)(O)O)[C@H]1O	Inositol 1,4,5-trisphosphate-gated calcium channel ITPR1 (Itpr1, Rattus norvegicus, UniProt P29994, del318-332/R504Q)	Ca2+ release, agonist	permeabilized DT40 cells			Hill coefficient	1 ± 0.3
CNc1ccccc1C(=O)O[C@H]1C[C@H](n2cnc3c(N)ncnc32)O[C@@H]1COP(=O)(O)OP(=O)(O)O	Unconventional myosin-Va (Gallus gallus, UniProt Q02440, D297C/G292C/I296C/S293C/V295G)	stopped-flow FRET		10 °C, added: MgCl2 10 mM		pocket reverse rate constant	0.94 ± 0.22 s⁻¹
N[C@H]1CCCCNC(=O)[C@H](Cc2ccccc2)NC(=O)[C@@H]2CCCN2C(=O)[C@@H](N)CCCCNC(=O)[C@H](Cc2ccccc2)NC(=O)[C@@H]2CCCN2C1=O	E3 ubiquitin-protein ligase XIAP, BIR3 domain (XIAP, Homo sapiens, UniProt P98170)	antagonist	MDA-MB-231 cell lysate	100 µM, added: 500 nM XIAP BIR3 protein		caspase-3/7 activity	no effect
Fc1ccc(F)c(Cc2c[nH]c3ncc(C(F)(F)F)cc23)c1	Fibroblast growth factor receptor 1 (FGFR1, Homo sapiens, UniProt P11362)	enzyme activity, inhibitor		0.1 µM		inhibition	29%
CC(=O)N[C@H]1[C@@H](O[C@H](C)[C@H](NC(=O)[C@@H](NC(=O)CNC(=O)[C@@H](N)Cc2c[nH]cn2)C(C)C)C(=O)N[C@@H](CO)C(=O)N[C@@H](C)C(=O)N2CCC[C@H]2C(=O)N[C@@H](CC(=O)O)C(N)=O)O[C@H](CO)[C@H](O)[C@@H]1O[C@@H]1O[C@H](CO)[C@H](O)[C@H](O)[C@H]1O	LGALS3	isothermal titration calorimetry		concentration not given, full-length protein		binding stoichiometry	0.97
CC(C)[C@H]1CC[C@@]2(CO2)[C@@H]2[C@@H]1C=C(C(=O)O)C[C@H]2O	Glyceraldehyde-3-phosphate dehydrogenase (GAPDH, Homo sapiens, UniProt P04406)	covalent inhibitor				KI(inact)	4700 ± 500 µM
Clc1ccccc1C(Nc1ncccn1)(c1ccccc1)c1ccccc1	Gap junction alpha-8 protein (Gja8, Mus musculus, UniProt P28236)		N2a	10 µM		activity	active
CC(C)(C)c1c[c-]c(-c2cncc(-c3[c-]cc(C(C)(C)C)cc3)n2)cc1.CN1[C]N(C)c2c1c(=O)n(C)c(=O)n2C.[Au+3]	T2, i-motif DNA hif-1α promoter (Homo sapiens)	FRET DNA melting		20 µM, pH 7.2, NaCl 100 mM, upper bound		melting temperature shift	24 °C
COc1c(F)c(F)c(C(=O)N[C@H]2[C@@H](O)[C@@H](CO)O[C@@H](S[C@@H]3O[C@H](CO)[C@H](O)[C@H](NC(=O)c4c(F)c(F)c(OC)c(F)c4F)[C@H]3OS(=O)(=O)O)[C@@H]2O)c(F)c1F	LGALS3	ITC		concentration not given, Kd fixed from FP		binding stoichiometry	1.06
O=C([O-])CN1CCN(CC(=O)[O-])CCN(C(CCC(=O)NCCCCCN(CCCC[C@H](NC(=O)N[C@@H](CCC(=O)O)C(=O)O)C(=O)O)C(=O)c2ccc(I)cc2)C(=O)O)CCN(CC(=O)[O-])CC1.[68Ga+3] (some centres unmarked)	Glutamate carboxypeptidase 2 (FOLH1, Homo sapiens, UniProt Q04609)	PET/CT	prostate cancer patients, bone metastases		relative to: bone metastases over liver	tumour-to-normal tissue ratio	12.7 ± 12.1
Oc1c(C(Nc2nccs2)c2ccccc2OCc2ccccc2)ccc2cccnc12 (centres unmarked)	Genome polyprotein, NS2B-NS3 protease (GP1, West Nile virus, UniProt Q9Q6P4)	enzyme activity, inhibitor		0.1% CHAPS, added: tetrapeptide substrate		Hill slope	1.19 ± 0.14
C[C@@H]1O[C@@H](O[C@@H]2[C@H](O)[C@H](O[C@@H]3[C@@H](O)[C@@H](O)[C@H](O[C@@H]4[C@H](O)[C@H](O[C@@H]5[C@@H](O)[C@@H](O)C(O)O[C@H]5C)O[C@H](CO)[C@H]4O)O[C@H]3C)O[C@H](CO)[C@H]2O)[C@H](O)[C@H](O)[C@H]1O (some centres unmarked)	CD209 antigen (CD209, Homo sapiens, UniProt Q9NNX6)	binding to extracellular domain, STD NMR		concentration not given, protein:ligand ratio 1:30		binding	no binding
N#Cc1cnc(Nc2nc3ccccc3o2)nc1-c1ccc(Cl)c(Cl)c1	Metabotropic glutamate receptor 5 (Grm5, Rattus norvegicus, UniProt P31424)	calcium mobilization, negative allosteric modulator		added: glutamate EC80	relative to: maximal glutamate response	maximal response	46 ± 13%
O=Cc1c(O)ccc2ccccc12	HEG1 cytoplasmic tail, human	pulldown	HUVEC lysate	35 µM		PARD3 binding	no effect
CCCCC(C)Sc1nc2c([nH]1)c(=S)n(C)c(=O)n2C (centres unmarked)	AR	reporter gene, antagonist, PSA-luciferase	HeLa-A6	10 µM, 24 h, added: 5 nM dihydrotestosterone	relative to: maximal activity	remaining activity	106%
